Assay results pooled from the literature.
Numbered parts are unrelated; each lists some results of a single study. “And” joins repeats or separate records; there may be more than shown.
UniProt Q13188, sequence (whole entry, looked up): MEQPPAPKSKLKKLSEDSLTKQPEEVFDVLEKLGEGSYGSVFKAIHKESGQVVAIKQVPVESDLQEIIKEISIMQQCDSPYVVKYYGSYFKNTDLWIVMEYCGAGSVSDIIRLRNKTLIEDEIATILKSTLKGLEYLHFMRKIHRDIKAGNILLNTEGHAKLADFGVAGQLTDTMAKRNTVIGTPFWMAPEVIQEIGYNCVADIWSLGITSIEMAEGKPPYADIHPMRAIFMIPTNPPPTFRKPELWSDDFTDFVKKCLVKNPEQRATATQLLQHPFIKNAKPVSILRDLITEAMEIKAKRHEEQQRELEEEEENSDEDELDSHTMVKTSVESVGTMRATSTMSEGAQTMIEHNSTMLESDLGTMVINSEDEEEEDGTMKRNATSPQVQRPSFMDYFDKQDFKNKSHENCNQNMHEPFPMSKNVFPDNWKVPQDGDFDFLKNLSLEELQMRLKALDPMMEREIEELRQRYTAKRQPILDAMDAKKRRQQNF
UniProt O75676, sequence (whole entry, looked up): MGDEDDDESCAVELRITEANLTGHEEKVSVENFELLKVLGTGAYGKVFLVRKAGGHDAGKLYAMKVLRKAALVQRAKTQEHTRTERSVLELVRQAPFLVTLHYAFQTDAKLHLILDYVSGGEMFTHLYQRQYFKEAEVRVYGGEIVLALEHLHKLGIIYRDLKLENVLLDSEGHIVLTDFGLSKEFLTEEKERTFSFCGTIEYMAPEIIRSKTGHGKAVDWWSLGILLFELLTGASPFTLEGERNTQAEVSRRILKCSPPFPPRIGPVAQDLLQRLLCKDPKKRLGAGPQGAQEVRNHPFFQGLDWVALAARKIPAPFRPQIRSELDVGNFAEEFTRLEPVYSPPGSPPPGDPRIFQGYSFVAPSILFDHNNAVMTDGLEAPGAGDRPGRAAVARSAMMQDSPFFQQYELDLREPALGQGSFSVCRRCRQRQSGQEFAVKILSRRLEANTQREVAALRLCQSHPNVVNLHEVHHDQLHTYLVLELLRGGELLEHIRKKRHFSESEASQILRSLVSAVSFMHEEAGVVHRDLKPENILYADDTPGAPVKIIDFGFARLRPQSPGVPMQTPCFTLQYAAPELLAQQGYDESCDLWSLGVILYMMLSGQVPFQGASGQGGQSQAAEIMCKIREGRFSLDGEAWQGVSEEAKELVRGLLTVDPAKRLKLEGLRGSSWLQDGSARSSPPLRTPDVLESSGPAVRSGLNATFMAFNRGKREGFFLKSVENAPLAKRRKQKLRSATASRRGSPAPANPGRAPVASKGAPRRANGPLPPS
UniProt P19784, sequence (whole entry, looked up): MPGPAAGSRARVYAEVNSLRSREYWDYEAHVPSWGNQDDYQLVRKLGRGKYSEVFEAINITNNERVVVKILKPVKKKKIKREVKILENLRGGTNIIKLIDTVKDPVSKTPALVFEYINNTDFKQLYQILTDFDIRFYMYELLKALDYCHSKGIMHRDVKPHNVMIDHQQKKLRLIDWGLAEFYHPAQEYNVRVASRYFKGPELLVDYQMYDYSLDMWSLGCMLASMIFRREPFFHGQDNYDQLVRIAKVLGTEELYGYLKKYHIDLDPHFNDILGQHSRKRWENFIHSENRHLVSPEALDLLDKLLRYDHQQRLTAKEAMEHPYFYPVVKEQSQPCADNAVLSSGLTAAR
UniProt Q9P1W9, sequence (whole entry, looked up): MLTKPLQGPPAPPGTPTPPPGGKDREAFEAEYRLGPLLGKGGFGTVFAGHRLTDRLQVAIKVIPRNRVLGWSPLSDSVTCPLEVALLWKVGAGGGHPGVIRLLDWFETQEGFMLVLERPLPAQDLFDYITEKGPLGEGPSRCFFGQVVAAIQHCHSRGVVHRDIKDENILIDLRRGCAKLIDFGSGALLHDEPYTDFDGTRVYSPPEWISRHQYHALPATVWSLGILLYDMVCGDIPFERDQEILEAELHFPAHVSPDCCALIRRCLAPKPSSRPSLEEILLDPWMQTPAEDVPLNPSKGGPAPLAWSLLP
UniProt P49760, sequence (whole entry, looked up): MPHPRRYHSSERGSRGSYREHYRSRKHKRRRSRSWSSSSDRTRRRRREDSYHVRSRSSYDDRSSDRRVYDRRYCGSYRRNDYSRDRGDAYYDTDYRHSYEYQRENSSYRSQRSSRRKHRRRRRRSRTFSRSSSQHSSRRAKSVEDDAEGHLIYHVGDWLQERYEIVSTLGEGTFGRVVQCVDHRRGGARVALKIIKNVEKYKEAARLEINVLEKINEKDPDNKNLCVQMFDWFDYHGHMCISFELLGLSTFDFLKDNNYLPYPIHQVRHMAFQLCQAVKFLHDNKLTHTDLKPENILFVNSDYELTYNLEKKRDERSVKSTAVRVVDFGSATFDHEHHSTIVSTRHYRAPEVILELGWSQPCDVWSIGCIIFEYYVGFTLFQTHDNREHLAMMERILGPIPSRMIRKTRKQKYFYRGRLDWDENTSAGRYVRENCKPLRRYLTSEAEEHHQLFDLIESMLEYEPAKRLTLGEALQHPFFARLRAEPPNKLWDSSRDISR

Sample 1 — cell line: A-375; concentration: 100 µM; time: 36 h
SMILES	viability [%]
N=c1ccn2c(n1)O[C@H]1[C@H](O)[C@@H](CO)O[C@H]12	45.2
NCCc1c[nH]cn1	119
O=C(O)c1cc(-c2ccc(F)cc2F)ccc1O	92
CCOc1cc(N)c(Cl)cc1C(=O)NCC1CN(Cc2ccc(F)cc2)CCO1 (stereo not drawn)	73.7
CC(C(O)c1ccc(O)cc1)N1CCC(Cc2ccccc2)CC1 (stereo not drawn)	60.9
O=C(CCCCCCC(=O)Nc1ccccc1)NO	11.9
c1ccc(CC2=NCCN2)cc1	112
O=c1ccc2ccc(OCCCCN3CCN(c4cccc5sccc45)CC3)cc2[nH]1	1.34

Sample 2 — observed: enzyme activity; mode: inhibitor; concentration: 77 µM; baseline: untreated
Target: DNA polymerase theta, ATPase domain (POLQ, Homo sapiens, UniProt O75417)
UniProt O75417, sequence (whole entry, unmodified, looked up): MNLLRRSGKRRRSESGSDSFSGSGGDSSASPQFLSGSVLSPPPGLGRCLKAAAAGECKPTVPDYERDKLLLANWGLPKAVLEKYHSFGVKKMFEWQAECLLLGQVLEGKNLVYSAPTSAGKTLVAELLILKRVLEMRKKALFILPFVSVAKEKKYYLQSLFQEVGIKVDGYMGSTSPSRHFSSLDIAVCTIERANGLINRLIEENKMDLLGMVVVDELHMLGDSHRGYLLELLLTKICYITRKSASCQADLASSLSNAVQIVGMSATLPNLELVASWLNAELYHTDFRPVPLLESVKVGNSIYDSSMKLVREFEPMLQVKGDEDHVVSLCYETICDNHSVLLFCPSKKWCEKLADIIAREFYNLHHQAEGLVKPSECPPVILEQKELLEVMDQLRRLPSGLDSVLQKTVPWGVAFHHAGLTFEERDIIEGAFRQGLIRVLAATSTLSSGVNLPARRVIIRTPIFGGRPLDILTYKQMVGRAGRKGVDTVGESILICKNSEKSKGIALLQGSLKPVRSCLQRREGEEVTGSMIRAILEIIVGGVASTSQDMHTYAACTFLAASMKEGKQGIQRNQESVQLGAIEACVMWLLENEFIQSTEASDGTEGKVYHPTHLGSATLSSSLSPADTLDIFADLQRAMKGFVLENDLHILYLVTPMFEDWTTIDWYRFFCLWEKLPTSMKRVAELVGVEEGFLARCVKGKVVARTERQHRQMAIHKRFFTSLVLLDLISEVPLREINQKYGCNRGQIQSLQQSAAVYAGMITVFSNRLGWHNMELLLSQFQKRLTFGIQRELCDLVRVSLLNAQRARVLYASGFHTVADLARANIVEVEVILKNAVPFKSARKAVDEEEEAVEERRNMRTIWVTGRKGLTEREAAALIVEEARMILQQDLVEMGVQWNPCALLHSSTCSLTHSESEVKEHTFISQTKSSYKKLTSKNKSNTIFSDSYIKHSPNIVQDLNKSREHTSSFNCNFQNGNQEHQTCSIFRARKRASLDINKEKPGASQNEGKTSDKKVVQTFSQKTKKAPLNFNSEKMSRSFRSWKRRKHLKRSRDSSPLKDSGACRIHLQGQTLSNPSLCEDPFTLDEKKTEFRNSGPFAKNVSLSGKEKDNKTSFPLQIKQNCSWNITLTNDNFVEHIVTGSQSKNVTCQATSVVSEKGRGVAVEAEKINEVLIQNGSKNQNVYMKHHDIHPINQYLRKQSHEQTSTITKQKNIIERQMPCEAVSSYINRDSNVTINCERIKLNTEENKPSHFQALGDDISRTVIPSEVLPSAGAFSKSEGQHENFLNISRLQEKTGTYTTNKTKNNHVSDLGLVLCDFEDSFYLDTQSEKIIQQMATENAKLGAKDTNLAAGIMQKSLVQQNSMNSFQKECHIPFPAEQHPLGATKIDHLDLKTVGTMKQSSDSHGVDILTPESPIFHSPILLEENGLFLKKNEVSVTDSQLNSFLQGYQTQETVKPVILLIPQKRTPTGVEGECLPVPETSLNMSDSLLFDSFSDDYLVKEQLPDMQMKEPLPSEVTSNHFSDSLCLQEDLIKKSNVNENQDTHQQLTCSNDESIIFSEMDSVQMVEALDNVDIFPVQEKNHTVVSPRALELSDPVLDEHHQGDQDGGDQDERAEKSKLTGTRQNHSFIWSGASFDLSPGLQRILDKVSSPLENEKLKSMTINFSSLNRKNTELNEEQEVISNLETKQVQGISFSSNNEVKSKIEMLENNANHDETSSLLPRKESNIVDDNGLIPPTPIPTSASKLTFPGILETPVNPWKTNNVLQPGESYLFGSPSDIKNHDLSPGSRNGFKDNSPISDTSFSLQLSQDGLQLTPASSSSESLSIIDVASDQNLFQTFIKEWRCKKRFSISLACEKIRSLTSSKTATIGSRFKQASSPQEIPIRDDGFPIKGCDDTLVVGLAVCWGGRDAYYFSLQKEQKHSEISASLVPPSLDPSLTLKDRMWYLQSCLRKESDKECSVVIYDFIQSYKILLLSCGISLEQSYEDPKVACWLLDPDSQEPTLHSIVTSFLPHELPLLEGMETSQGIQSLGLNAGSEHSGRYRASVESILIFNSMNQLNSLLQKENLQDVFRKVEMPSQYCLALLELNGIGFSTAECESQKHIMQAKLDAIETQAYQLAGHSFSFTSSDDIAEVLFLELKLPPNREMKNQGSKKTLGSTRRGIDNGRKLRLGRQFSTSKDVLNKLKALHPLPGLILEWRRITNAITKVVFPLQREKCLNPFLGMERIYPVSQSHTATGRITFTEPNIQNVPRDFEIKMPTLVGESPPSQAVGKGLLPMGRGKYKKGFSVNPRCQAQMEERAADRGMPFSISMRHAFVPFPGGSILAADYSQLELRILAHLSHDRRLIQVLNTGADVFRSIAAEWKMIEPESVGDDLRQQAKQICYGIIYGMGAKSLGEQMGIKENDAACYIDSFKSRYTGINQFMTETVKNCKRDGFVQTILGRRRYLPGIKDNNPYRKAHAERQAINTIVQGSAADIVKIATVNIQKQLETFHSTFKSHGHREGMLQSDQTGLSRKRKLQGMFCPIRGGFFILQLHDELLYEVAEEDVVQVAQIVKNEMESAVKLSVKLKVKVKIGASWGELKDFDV
SMILES	remaining activity
COC(=O)C1=C(C)NC(C)=C(C(=O)O[C@@H]2CCCN(Cc3ccccc3)C2)[C@@H]1c1cccc([N+](=O)[O-])c1 (racemic)	99.3%
CC[n+]1c(/C=C/C=C2/N(C)c3ccccc3C2(C)C)sc2ccccc21	88.2%
CN1CCN(C2Cc3ccccc3Sc3ccc(Cl)cc32)CC1 (stereo not drawn)	103%
Cn1cc(-c2ccc3nnc(C(F)(F)c4ccc5ncccc5c4)n3n2)cn1	109% and 108% and 106% and 94.8%
Cc1c(Cl)cccc1Nc1ccccc1C(=O)O	92.6% and 92.8%
O=C(NCc1ccccc1)c1csc(Nc2ccncn2)n1	97.4%
O=C(/C=C/c1cccc(S(=O)(=O)Nc2ccccc2)c1)NO	102%
COc1cc2nccc(Oc3ccc(NC(=S)NC(=O)c4ccccc4C)cc3)c2cc1OC	111%
Cc1cccc(C)c1NC(=O)CN1CCN(CCCC(c2ccc(F)cc2)c2ccc(F)cc2)CC1	94.7%

Sample 3 — observed: cell-free assay; technique: competition with immobilised ligand; concentration: 1 µM
Structure (SMILES): CS(=O)(=O)c1cc(C2(NC(=O)c3cncc4c3cnn4-c3ccc(F)cc3)CC2)ccn1
target	remaining binding
cGMP-dependent protein kinase 2 (PRKG2, Homo sapiens, UniProt Q13237)	89%
Dual specificity mitogen-activated protein kinase kinase 2 (MAP2K2, Homo sapiens, UniProt P36507)	80%
Tyrosine-protein kinase ABL1, non-phosphorylated (ABL1, Homo sapiens, UniProt P00519, T315I)	75%
Tyrosine-protein kinase Yes (YES1, Homo sapiens, UniProt P07947)	100%
Serine/threonine-protein kinase WNK3 (WNK3, Homo sapiens, UniProt Q9BYP7)	100%
Tyrosine-protein kinase Srms (SRMS, Homo sapiens, UniProt Q9H3Y6)	86%
Ephrin type-B receptor 1 (EPHB1, Homo sapiens, UniProt P54762)	91%
Inhibitor of nuclear factor kappa-B kinase subunit epsilon (IKBKE, Homo sapiens, UniProt Q14164)	100%
Mast/stem cell growth factor receptor Kit (KIT, Homo sapiens, UniProt P10721, T670I/V559D)	84%
Dual specificity protein kinase CLK2 (CLK2, Homo sapiens, UniProt P49760)	100%
Serine/threonine-protein kinase N2 (PKN2, Homo sapiens, UniProt Q16513)	100%
Serine/threonine-protein kinase LATS2 (LATS2, Homo sapiens, UniProt Q9NRM7)	100%
Ephrin type-B receptor 2 (EPHB2, Homo sapiens, UniProt P29323)	100%
Mitogen-activated protein kinase kinase kinase 20 (MAP3K20, Homo sapiens, UniProt Q9NYL2)	86%
STE20/SPS1-related proline-alanine-rich protein kinase (STK39, Homo sapiens, UniProt Q9UEW8)	58%
Serine/threonine-protein kinase PLK2 (PLK2, Homo sapiens, UniProt Q9NYY3)	70%
Serine/threonine-protein kinase 33 (STK33, Homo sapiens, UniProt Q9BYT3)	90%
Ribosomal protein S6 kinase alpha-4, C-terminal kinase domain (RPS6KA4, Homo sapiens, UniProt O75676)	81%
Dual specificity tyrosine-phosphorylation-regulated kinase 1A (DYRK1A, Homo sapiens, UniProt Q13627)	81%
Ribosomal protein S6 kinase beta-1 (RPS6KB1, Homo sapiens, UniProt P23443)	100%
Serine/threonine-protein kinase 3 (STK3, Homo sapiens, UniProt Q13188)	100%
Phosphatidylinositol 4,5-bisphosphate 3-kinase catalytic subunit alpha isoform (PIK3CA, Homo sapiens, UniProt P42336, I800L)	68%
NT-3 growth factor receptor (NTRK3, Homo sapiens, UniProt Q16288)	90%
Casein kinase I isoform gamma-1 (CSNK1G1, Homo sapiens, UniProt Q9HCP0)	100%
Serine/threonine-protein kinase ULK3 (ULK3, Homo sapiens, UniProt Q6PHR2)	100%

Sample 4 — mode: inhibitor
Structure (SMILES): Cc1nc(Nc2ncc(C(=O)Nc3c(C)cccc3Cl)s2)cc(N2CCN(CCO)CC2)n1
target	conditions	inhibition [%]
Casein kinase I isoform alpha-like (CSNK1A1L, Homo sapiens, UniProt Q8N752)	10 µM	< 50
High affinity nerve growth factor receptor (NTRK1, Homo sapiens, UniProt P04629)	10 µM	< 50
Tyrosine-protein kinase receptor Tie-1 (TIE1, Homo sapiens, UniProt P35590)	10 µM	< 50
Casein kinase II subunit alpha' (CSNK2A2, Homo sapiens, UniProt P19784)	10 µM	< 50
Aurora kinase C (AURKC, Homo sapiens, UniProt Q9UQB9)	10 µM	74
5'-AMP-activated protein kinase catalytic subunit alpha-2 (PRKAA2, Homo sapiens, UniProt P54646)	1 µM	< 50
Serine/threonine-protein kinase pim-2 (PIM2, Homo sapiens, UniProt Q9P1W9)	10 µM	< 50
Serine/threonine-protein kinase 32C (STK32C, Homo sapiens, UniProt Q86UX6)	1 µM	< 50
Serine/threonine-protein kinase 3 (STK3, Homo sapiens, UniProt Q13188)	10 µM	< 50

Excerpt of the above (sample 3):
target	remaining binding
Serine/threonine-protein kinase LATS2 (LATS2, Homo sapiens, UniProt Q9NRM7)	100%
Ephrin type-B receptor 2 (EPHB2, Homo sapiens, UniProt P29323)	100%
Mitogen-activated protein kinase kinase kinase 20 (MAP3K20, Homo sapiens, UniProt Q9NYL2)	86%
STE20/SPS1-related proline-alanine-rich protein kinase (STK39, Homo sapiens, UniProt Q9UEW8)	58%
Serine/threonine-protein kinase PLK2 (PLK2, Homo sapiens, UniProt Q9NYY3)	70%
Serine/threonine-protein kinase 33 (STK33, Homo sapiens, UniProt Q9BYT3)	90%
Ribosomal protein S6 kinase alpha-4, C-terminal kinase domain (RPS6KA4, Homo sapiens, UniProt O75676)	81%
